Measurements gathered from unrelated publications.
Protocols differ between the studies behind these lines. ± gives the spread as reported.

SMILES | cell line | assay | conditions | scale | quantity | result
COc1cc(CNC(=O)C[C@H](C)CCC=C(C)C)ccc1OCc1cn(-c2ccc(C#N)cc2)nn1 | SNB-75 CNS cancer cells | SRB | 10 µM, 48 h |  | growth percent | 54.6%
Cc1nc(Nc2ncc(C(=O)Nc3c(C)cccc3Cl)s2)cc(N2CCN(C(=O)CN)CC2)n1 | KU812 | cell growth, CCK-8 | 20 nM |  | onset of growth inhibition | 3 h
COc1cc(CNC(=O)C[C@H](C)CCC=C(C)C)ccc1OCc1cn(-c2ccc(Cl)c(Cl)c2)nn1 | NCI-H522 | SRB | 10 µM, 48 h |  | growth percent | 61.5%
CCCCc1ccc(C(=O)N[C@@H](CO)C(=O)N[C@H](C(=O)N2CCC[C@H]2C(=O)N[C@@H](CC(N)=O)C(=O)NCC(=O)N[C@@H](CC(C)C)C(=O)O)[C@@H](C)OP(=O)(O)O)cc1 | HeLa-H2B-GFP, QQ transfected |  | 30 µM, 24 h |  | aberrant mitoses | 53.8%
COc1cc(CNC(=O)C[C@H](C)CCC=C(C)C)ccc1OCc1cn(-c2ccc([N+](=O)[O-])cc2)nn1 | SNB-75 CNS cancer cells | SRB | 10 µM, 48 h |  | growth percent | 78%
COc1cc(O)c(Cl)cc1/C=C/C(=O)c1ccc(C(F)(F)F)cc1 | mouse bone marrow macrophages | flow cytometry | 10 and 20 µM, together with: LPS |  | CD206 expression | increased
COc1cc(CNC(=O)C[C@H](C)CCC=C(C)C)ccc1OCc1cn(-c2ccccc2Cl)nn1 | NCI/ADR-RES | SRB | 10 µM, 48 h |  | growth | 24%
O=Cc1c(O)ccc2ccccc12 | HUVEC | RNA sequencing, item: AOC2 | 75 µM, 24 h | relative to: DMSO | log2 fold change | 2.63
N#Cc1cccc(-c2ccc(=O)n(Cc3cccc(-c4ncc(OCC5CCN(CC(=O)N6CCN(c7ccc8c(c7)C(=O)N(C7CCC(=O)NC7=O)C8=O)CC6)CC5)cn4)c3)n2)c1 (stereo not drawn) | EBC-1, Hs746T | Western blot, item: phospho-MET | 10 and 100 nM, sustained 24 h |  | time to complete inhibition | 6 h
CCC(=C(c1ccc(Cl)cc1)c1ccc(OCCCN(C)C)cc1)c1ccc(OC)cc1 | NCI/ADR-RES | cell growth or viability |  |  | GI50 | 7270 nM
O=C(CSc1nc2ccccc2s1)Nc1nonc1[N+](=O)[O-] | Ramos | qRT-PCR, item: Myc-target genes | 15 µM, 8 h |  | mRNA level | decreased
O=C(Cn1c(=O)c(Cc2ccccc2)nc2ccccc21)NN1C(=O)c2ccccc2C1=O | HCT-116 | qRT-PCR, item: p53 | concentration not given, 72 h | relative to: untreated | mRNA level | 3.12 ± 0.078 fold
C=C(CC)C(=O)c1ccc(OCC(=O)NCCCCNC(=O)COc2ccc(C(=O)C(=C)CC)c(Cl)c2Cl)c(Cl)c1Cl | SK-OV-3/DDP | cell growth, CCK-8 | 72 h |  | IC10 | 4.8 µM
CCN(CC)CC(=O)Nc1cccc(-n2cc(-c3ccc4ccc(-c5cn(-c6cccc(NC(=O)CN(CC)CC)c6)nn5)cc4c3)nn2)c1 | 786-0 cells | Western blot | 5 x IC50, 4 h, hypoxia | relative to: untreated | HIF-2α protein level | 51%
CS(C)=O.CS(C)=O.[Cl][Cu][Cl].c1ccc(-c2nnc(-c3ccc4c(c3)OCO4)[nH]2)nc1 | T24 | western blot, item: Bcl-2 | 1.8 and 3.5 µM, 24 h |  | protein level | decreased
CCC12CCc3c(c4ccccc4n3C)CCN(CC3OC31)C2 (stereo not drawn) | BV-2 |  | concentration not given, LPS 2 h, together with: LPS | relative to: LPS alone | NF-kB p65 nuclear translocation | ~59.9%
C[C@H](N)C(=O)N[C@@H](Cc1c[nH]c2ccccc12)C(=O)N[C@@H](CCC(N)=O)C(=O)N[C@@H](Cc1c[nH]c2ccccc12)C(=O)N[C@@H](CCCNC(=N)N)C(=O)N[C@@H](Cc1c[nH]c2ccccc12)C(=O)N[C@@H](CCC(N)=O)C(=O)N[C@@H](Cc1c[nH]c2ccccc12)C(=O)N[C@@H](CCCNC(=N)N)C(N)=O | young human fibroblasts primary | MTT | concentration not given, 48 h, 37 °C, 5% FBS | relative to: untreated cells | viability | 92 ± 2%
COc1cc(/C=C/C(=O)/C=C(O)/C=C/c2ccc(OCC(=O)N3CCOCCOCCOCCOCC3)c(OC)c2)ccc1OCC(=O)N1CCOCCOCCOCCOCC1 | SK-LU-1 | cell growth or viability, SRB | 5 µM |  | inhibition | 20.8%
COc1cc(CNC(=O)C[C@H](C)CCC=C(C)C)ccc1OCc1cn(-c2cccc(C(F)(F)F)c2)nn1 | SK-MEL-28 melanoma cells | SRB | 10 µM, 48 h |  | growth percent | 91.5%
Cc1cnc2c(ccc3c(C)c(C)cnc32)c1C.O=C([O-])Cc1ccccc1Nc1c(Cl)cccc1Cl.O=C([O-])Cc1ccccc1Nc1c(Cl)cccc1Cl.[Mn+2] | HMLER-shEcad |  | IC20, 5 d | relative to: untreated | decrease in mammosphere number | 51%
CO[C@H]1O[C@H](COC(c2ccccc2)(c2ccccc2)c2ccccc2)[C@@H](OS(=O)(=O)c2ccccc2)[C@H](OS(=O)(=O)c2ccccc2)[C@H]1OS(=O)(=O)c1ccccc1 | Ehrlich | cell growth or viability, MTT | 15.625 µg/mL, 24 h |  | inhibition | 1.21%
C(=C/c1ccccc1)/c1ccccc1 | U-937 | cell proliferation, CellTiter-Glo | 24 h, lowest dose with significant inhibition | relative to: vehicle | lowest effective concentration | 2 µM
CCCCCCCCCCCCCCCOC(=O)/C=C/c1cc(O)c(O)c(OC)c1 | MDA-MB-231 |  | concentration not given, 24 h | relative to: untreated | caspase-9 activity | 48 % increase
Cc1cc2c(c(=O)o1)C=C1CCC(C(C)CNCc3ccc(O)cc3)CC1O2 (stereo not drawn) | MC65 | western blot, item: SDS-stable Aβ dimer | concentration not given, 24 h after tetracycline withdrawal |  | reduction of Aβ oligomers | 72%
Cc1cc(/C=C/c2ccc(O)c(O)c2)[nH]n1 | CHO | DCF-DA | 10 µM, 2 h pretreatment, read 30 min post-irradiation, together with: 2 Gy radiation | relative to: irradiated control | reduction in ROS level | 43%
O=C(N1CCCC1)n1cc(-c2ccc(-c3ccccc3)cc2)nn1 | mouse T-cells | N-terminal labeled proteins, N-terminal enrichment proteomics, item: OXSR1 | 1 nM, 6 h | relative to: DMSO | SILAC ratio | 1.09 ± 0.11

SMILES | cell line | assay | conditions | scale | quantity | result
COc1ncccc1CN(C(=O)OCc1ccc([N+](=O)[O-])cc1F)[C@H]1[C@@H](C)[C@@H]1c1ccccc1 (racemic) | THP-1 cells | colony forming unit |  | relative to: EC50 wild type over NTR-expressing | selectivity ratio | > 3
C=CCc1cc(OC)c(OC(C)=O)c(OC)c1 | MDA-MB-231 | cell growth or viability, MTT |  |  | IC20 | 50 µM
Cc1ccc(-n2nnnc2[S+]([O-])Cc2c(F)cccc2Cl)cc1Cl (stereo not drawn) | Ramos | LFQ mass spectrometry | 10 µM, 8 h |  | downregulated proteins | 1710 count
C[N+](C)(C)c1ccc(C2NC(c3ccc([N+](C)(C)C)cc3)C34c5c6c7c8c9c%10c(c%11c%12c3c3c5c5c%13c6c6c7c7c9c9c%14c%10c%10c%11c%11c%12c%12c3c3c5c5c%13c%13c6c6c7c9c7c9c%14c%10c%10c%11c%11c%12c3c3c5c5c%13c6c7c6c9c%10c%11c3c56)C824)cc1 (stereo not drawn) | BC-3 | cell growth or viability | 24 h |  | CC50 | 20.6 µM
COc1cc2c(C=C3C(=O)Nc4ccccc43)c[nH]c2cc1C | CNS cancer subpanel of NCI-60 |  | 48 h |  | TGI | 3.63 µM
COc1ccc(NC(=O)N/N=C2\CC3(CCN(C)CC3)Oc3ccccc32)cc1 | HCT-116 | PI staining, flow cytometry | concentration not given, %G0-G1 |  | cell cycle distribution | 47.8%
CSc1nc(Nc2ccc(/C(C)=N/NC(=O)c3ccc([N+](=O)[O-])cc3[N+](=O)[O-])cc2)c(C#N)c(-c2ccccc2)n1 | HCT-116 | flow cytometry | concentration not given | relative to: untreated control | sub-G1 phase cells | 7.91 fold
CC(=C(c1ccc(O)cc1)c1ccc(Cl)cc1)c1ccc(Cl)cc1 | OVCAR-4 | cell growth or viability |  |  | GI50 | 770 nM
Cc1c(C)c(C)[c-](C)c1C.[C-]#[O+].[C-]#[O+].[C-]#[O+].[Cl-].[Cl-].[Cl-].[Ir+3].[Re+].c1cnc(-c2ncccn2)nc1 | MDA-MB-468 | JC-1 flow cytometry | 10 µM |  | cells with depolarised mitochondria | 28.9%
CCOC(=O)C/C(C)=N/NC(=O)c1nc2ccccc2n(C)c1=O | MCF7, HepG2 and HCT-116 | cell growth, MTT | 10 µM, range over three lines |  | growth inhibition | ≥ 88.7%
COc1ccc([C@@H]2CC(=O)c3c(O)cc(O[C@@H]4O[C@H](CO[C@@H]5O[C@@H](C)[C@H](O)[C@@H](O)[C@H]5O)[C@@H](O)[C@H](O)[C@H]4O)cc3O2)cc1O | A549 | trypan blue exclusion | 50 µg/mL, 24 h |  | cell count | 15000 ± 505
CCCC(CCC)C(=O)[O][Pt]([NH2])([NH2])([Cl])([Cl])[O]C(=O)C(C)c1ccc(CC(C)C)cc1 (stereo not drawn) | six human cancer lines | cytotoxicity, MTT |  | relative to: cisplatin | IC50 fold lower | ~10 fold
C[C@H](NC(=O)[C@H](Cc1c[nH]c2ccccc12)NC(=O)[C@@H](N)CCCNC(=N)N)C(=O)N[C@@H](Cc1c[nH]c2ccccc12)C(=O)N[C@@H](CCCNC(=N)N)C(=O)N[C@@H](Cc1c[nH]c2ccccc12)C(=O)N[C@@H](CCC(N)=O)C(=O)N[C@@H](Cc1c[nH]c2ccccc12)C(=O)N[C@@H](CCCNC(=N)N)C(N)=O | young human fibroblasts primary | MTT | concentration not given, 2 h, 37 °C, 5% FBS | relative to: untreated cells | viability | 100 ± 3%
COc1cc(CNC(=O)C[C@H](C)CCC=C(C)C)ccc1OCc1cn(-c2ccc(F)cc2)nn1 | NCI/ADR-RES | SRB | 10 µM, 48 h |  | growth | 45.4%
CCCCN(CCCC)CC(O)COc1c2ccoc2c(OC)c2oc(CC)cc(=O)c12 (stereo not drawn) | HTB-140 | Annexin V 7-AAD | IC50, 72 h |  | late apoptotic or necrotic cells | 48.8%
O=Cc1ccc(N2CCC(O)CC2)o1 | human sickle cell (SS) red blood cells | RBC morphology | 2 mM, 2 h, 37 °C, hypoxia 2.5% O2, haematocrit 20% | relative to: untreated | inhibition of sickling | 22%
COc1cc(CNC(=O)C[C@H](C)CCC=C(C)C)ccc1OCc1cn(-c2ccccc2[N+](=O)[O-])nn1 | NCI/ADR-RES | SRB | 10 µM, 48 h |  | growth | 36%
C=CC(=O)N1CCCC(n2c(=O)c3ncccc3n(Cc3ccc(Oc4ccccc4)cc3)c2=O)C1 (stereo not drawn) | RPMI-8226 carfilzomib-resistant | cell proliferation, MTT |  | relative to: resistant over parental | sensitivity ratio | 4 fold
CC(=O)OC[C@H]1O[C@@H](Sc2sc(C(=O)c3ccc(C)cc3)c(N)c2-c2nc3ccccc3s2)[C@H](OC(C)=O)[C@@H](OC(C)=O)[C@H]1OC(C)=O | NCI/ADR-RES | SRB | 10 µM, 48 h |  | growth | 82%
COc1ccc([C@@H]2CC(=O)c3c(O)cc(O[C@@H]4O[C@H](CO[C@@H]5O[C@@H](C)[C@H](O)[C@@H](O)[C@H]5O)[C@@H](O[C@H]5O[C@H](CO)[C@@H](O)[C@H](O)[C@H]5O)[C@H](O)[C@H]4O)cc3O2)cc1O | A549 | cell migration, scratch | 150 µg/mL, 48 h |  | gap closure | 4.37 ± 0.75%
CC(=O)Oc1ccccc1C(=O)[O][Pt]([NH2])([NH2])([Cl])([Cl])[O]C(=O)CCCc1ccccc1 | HEK293 and BCPAP | cytotoxicity, MTT |  | relative to: IC50 HEK293 over IC50 BCPAP | selectivity index | 1.8
CC/C=C\C/C=C\C/C=C\C/C=C\C/C=C\C/C=C\CCC(=O)Nc1ccn(C2OC(CO)C(O)C2(F)F)c(=O)n1 (stereo not drawn) | UO-31 | cell growth or viability, SRB |  |  | GI50 | 83.5 nM
CC(=O)N1CCC[C@H]1C(=O)N[C@@H](CC/C=C/C(=O)N(C)C)C(=O)N[C@@H](CCNC(=O)CCCCCN1C(=CC=CC=CC2=[N+](C)c3ccc(S(=O)(=O)[O-])cc3C2(C)C)C(C)(C)c2cc(S(=O)(=O)O)ccc21)C(=O)N1CCC[C@H]1C(=O)N[C@@H](Cc1ccccc1)C(N)=O | NRK cells | item: EEA-1 | 90 min, together with: α2-macroglobulin |  | Pearson colocalization coefficient | 0.01
COc1cc(CNC(=O)C[C@H](C)CCC=C(C)C)ccc1OCc1cn(-c2ccccc2F)nn1 | NCI/ADR-RES | SRB | 10 µM, 48 h |  | growth | 54.8%
C=CC(OC(C)=O)c1ccc(OC(C)=O)c(OC)c1 (stereo not drawn) | MDA-MB-231 | cell growth or viability, MTT |  |  | IC20 | 4 µM
